Measurements from different studies.
Protocols differ between the studies behind these lines. Numbers after ± are the reported error. ≈ marks a conversion by molar mass, not a printed value.

CCN(CC)CC#CCOC(=O)[C@]1(C)CCC[C@]2(C)[C@H]3C[C@H]4C(C(C)C)=C[C@]3(CC[C@H]21)[C@@H]1C(=O)OC(=O)[C@@H]14
selectivity index (Influenza A virus; MDCK, A/Puerto Rico/8/34 (H1N1); reference: CC50 over IC50): 0.49

CONC(=O)[C@H]1[C@@H](O)[C@@]2(O)c3c(OC)cc(OC)cc3O[C@@]2(c2ccc(OC)cc2)[C@@H]1c1ccccc1
viral RNA level (Human coronavirus 229E; refers to: genomic and subgenomic RNA; concentration not given): decreased

CC(=N)N1CC23C4CCC5C4C4C2CCC4C53C1
EC50 (Influenza A virus; viral replication; MDCK, H1N1 A/PR/8/34): ≤ 2.3 µM

CCCCCCCCCC(=O)NCC(=O)N[C@@H](CC(C)C)C(=O)N[C@@H](CC(C)C)C(=O)N[C@@H](CCCCN)C(=O)N[C@@H](CCCNC(=N)N)C(=O)N[C@H](C(=O)N[C@@H](CCCCN)C(=O)N[C@H](C(=O)N[C@@H](CC(C)C)C(=O)N[C@@H](CC(C)C)C(N)=O)[C@@H](C)O)[C@@H](C)CC
FIC index (Klebsiella pneumoniae; checkerboard; ATCC 700603; with: polymyxin B): 0.312

Cc1cc(Oc2nc(N3CC[C@@H](c4ccncc4)C3)ncc2F)[nH]n1
MIC90 (Mycobacterium tuberculosis; H37Rv, cholesterol medium): 0.0291 ± 0.0017 µM

c1cc2c(s1)CCOC21CCN(Cc2ccc3c(c2)OCCO3)CC1
MIC (Haemophilus influenzae; microbial growth, broth dilution; H128): 64 µM (≈ 22.9 µg/mL)

CN1CC23C4C=CC5C4C4C2C=CC4C53C1
EC50 (Influenza A virus; viral replication; A/Ishikawa/7/82 (H3N2)): > 100 µM

COc1ccc(C(=O)OC2C(OC3C(O)COC(OC4CC5C6CC=C7CC(O)CCC7(C)C6CCC5(C)C4(O)C(C)C(=O)CCC(C)C)C3OC(C)=O)OCC(O)C2O)cc1 (centres unmarked)
IC50 (Human coronavirus 229E; viral replication, imaging; MRC5; 24 h): 0.0005 µM

CCCCCCCC(=O)NCC(=O)N[C@@H](CC(C)C)C(=O)N[C@@H](CC(C)C)C(=O)N[C@@H](CCCCN)C(=O)N[C@@H](CCCNC(=N)N)C(=O)N[C@H](C(=O)N[C@@H](CCCCN)C(=O)N[C@H](C(=O)N[C@@H](CC(C)C)C(=O)N[C@@H](CC(C)C)C(N)=O)[C@@H](C)O)[C@@H](C)CC
FIC index (Klebsiella pneumoniae; checkerboard; ATCC 700603; with: rifampicin): 0.312

COc1cc(/C=C/C(=O)/C=C/c2ccc(O)c(OC)c2)ccc1O
IC50 (VSV-G pseudotyped HIV-1 pNL4-3; viral replication): 0.7 µM

CCC1(CC)C2CC3CC(C2)CC1(N)C3
EC50 (Influenza A virus; viral replication; A/Ishikawa/7/82 (H3N2)): > 100 µM

C[C@@H](O)[C@H](NC(=O)c1ccc(C#Cc2ccc(CN3CCOCC3)cc2)cc1)C(=O)NO
MIC90 (Burkholderia cepacia): > 64 µg/mL

CCN(CC)CC#CCOC(=O)[C@]1(C)CCC[C@]2(C)c3ccc(C(C)C)cc3CC[C@@H]12
selectivity index (Influenza A virus; MDCK, A/Puerto Rico/8/34 (H1N1); reference: CC50 over IC50): 1

CCCC(=O)NCC(=O)N[C@@H](CC(C)C)C(=O)N[C@@H](CC(C)C)C(=O)N[C@@H](CCCCN)C(=O)N[C@@H](CCCNC(=N)N)C(=O)N[C@H](C(=O)N[C@@H](CCCCN)C(=O)N[C@H](C(=O)N[C@@H](CC(C)C)C(=O)N[C@@H](CC(C)C)C(=O)NCCCC[C@H](NC(=O)[C@H](CC(C)C)NC(=O)[C@H](CC(C)C)NC(=O)[C@@H](NC(=O)[C@H](CCCCN)NC(=O)[C@@H](NC(=O)[C@H](CCCNC(=N)N)NC(=O)[C@H](CCCCN)NC(=O)[C@H](CC(C)C)NC(=O)[C@H](CC(C)C)NC(=O)CNC(=O)CCC)[C@@H](C)CC)[C@@H](C)O)C(N)=O)[C@@H](C)O)[C@@H](C)CC
FIC index (Klebsiella pneumoniae; checkerboard; ATCC 700603; with: gentamicin): 0.625

CC(N)C12C3CCC4C3C3C(CCC31)C42 (centres unmarked)
EC50 (Influenza A virus; viral replication; MDCK, H3N2 A/HK/7/87): > 100 µM

CCCCCC(=O)NCC(=O)N[C@@H](CC(C)C)C(=O)N[C@@H](CC(C)C)C(=O)N[C@@H](CCCCN)C(=O)N[C@@H](CCCNC(=N)N)C(=O)N[C@H](C(=O)N[C@@H](CCCCN)C(=O)N[C@H](C(=O)N[C@@H](CC(C)C)C(=O)N[C@@H](CC(C)C)C(=O)NCCCC[C@H](NC(=O)[C@H](CC(C)C)NC(=O)[C@H](CC(C)C)NC(=O)[C@@H](NC(=O)[C@H](CCCCN)NC(=O)[C@@H](NC(=O)[C@H](CCCNC(=N)N)NC(=O)[C@H](CCCCN)NC(=O)[C@H](CC(C)C)NC(=O)[C@H](CC(C)C)NC(=O)CNC(=O)CCCCC)[C@@H](C)CC)[C@@H](C)O)C(N)=O)[C@@H](C)O)[C@@H](C)CC
FIC index (Klebsiella pneumoniae; checkerboard; ATCC 700603; with: polymyxin B): 0.125

O=C(NC12CC3CC(CC(C3)C1)C2)c1cc2cc(Cl)ccc2[nH]1
MIC (Haemophilus influenzae; broth microdilution; H128 AcrA-): > 64 µM

CCCC(=O)NCC(=O)N[C@@H](CC(C)C)C(=O)N[C@@H](CC(C)C)C(=O)N[C@@H](CCCCN)C(=O)N[C@@H](CCCNC(=N)N)C(=O)N[C@H](C(=O)N[C@@H](CCCCN)C(=O)N[C@H](C(=O)N[C@@H](CC(C)C)C(=O)N[C@@H](CC(C)C)C(=O)NCCCC[C@H](NC(=O)[C@H](CCCCNC(=O)[C@H](CC(C)C)NC(=O)[C@H](CC(C)C)NC(=O)[C@@H](NC(=O)[C@H](CCCCN)NC(=O)[C@@H](NC(=O)[C@H](CCCNC(=N)N)NC(=O)[C@H](CCCCN)NC(=O)[C@H](CC(C)C)NC(=O)[C@H](CC(C)C)NC(=O)CNC(=O)CCC)[C@@H](C)CC)[C@@H](C)O)NC(=O)[C@H](CC(C)C)NC(=O)[C@H](CC(C)C)NC(=O)[C@@H](NC(=O)[C@H](CCCCN)NC(=O)[C@@H](NC(=O)[C@H](CCCNC(=N)N)NC(=O)[C@H](CCCCN)NC(=O)[C@H](CC(C)C)NC(=O)[C@H](CC(C)C)NC(=O)CNC(=O)CCC)[C@@H](C)CC)[C@@H](C)O)C(N)=O)[C@@H](C)O)[C@@H](C)CC
FIC index (Klebsiella pneumoniae; checkerboard; ATCC 700603; with: gentamicin): 0.625

CC(C)C[C@H](NC(=O)OCc1ccccc1)C(=O)N[C@@H](C[C@@H]1CCNC1=O)C(O)S(=O)(=O)O (some centres unmarked)
EC50 (human coronavirus NL63; viral replication): 0.19 ± 0.01 µM

COc1ccc2nc(C)cc(OCC(=O)Nc3cc(C)cc(C)c3)c2c1
MIC (Haemophilus influenzae; microbial growth, broth dilution; H128): 64 µM (≈ 22.4 µg/mL)

CNCC12C3CCC4C3C3C(CCC31)C42
EC50 (Influenza A virus; viral replication; MDCK, H1N1 A/PR/8/34): 21 µM

Cc1cccc(-c2nc(Nc3ccncn3)c3c(C)csc3n2)n1
MIC (Haemophilus influenzae; broth microdilution; H128 AcrA-): 0.25 µM (≈ 0.0836 µg/mL)

CC[C@H](C)[C@H](NC(=O)[C@H](CCC(N)=O)NC(=O)[C@@H]1CCCN1C(=O)[C@@H](NC(=O)[C@@H](NC(=O)[C@H](Cc1ccccc1)NC(=O)[C@H](C)NC(=O)[C@H](C)NC(=O)[C@H](CC(C)C)NC(=O)[C@H](CCCNC(=N)N)NC(=O)[C@H](C)NC(=O)[C@H](CC(C)C)NC(=O)[C@H](CC(C)C)NC(=O)CNC(=O)[C@@H](NC(=O)[C@@H](N)Cc1ccccc1)C(C)C)C(C)C)[C@@H](C)CC)C(=O)N[C@H](C(=O)N[C@@H](CCCCN)C(=O)N[C@@H](CCCNC(=N)N)C(=O)N[C@@H](Cc1ccccc1)C(=O)N[C@@H](CCC(N)=O)C(=O)N[C@@H](CCCCN)C(=O)N[C@@H](CCCCN)C(=O)N[C@@H](CC(N)=O)C(N)=O)C(C)C
MIC (Aspergillus flavus; ATP luminescence; ATCC 9170; 48 h, 37 °C): > 50 µM

CN1CC23C4C5CC5C5C4C4C2C2CC2C4C53C1 (centres unmarked)
EC50 (Influenza A virus; viral replication; MDCK, H1N1 A/PR/8/34): 4.6 µM

CC(C)c1ccc2c(c1)CC[C@H]1[C@](C)(C(=O)OCC#CCN3CCOCC3)CCC[C@]21C
selectivity index (Influenza A virus; MDCK, A/Puerto Rico/8/34 (H1N1); reference: CC50 over IC50): < 1

c1ccc(CNCC23C4CCC5C4C4C(CCC42)C53)cc1
EC50 (Influenza A virus; viral replication; MDCK, H1N1 A/PR/8/34): > 100 µM

CC[C@H](C)[C@H](NC(=O)[C@H](CCCNC(=N)N)NC(=O)[C@H](CCCCN)NC(=O)[C@H](CC(C)C)NC(=O)[C@H](CC(C)C)NC(=O)CN)C(=O)N[C@@H](CCCCN)C(=O)N[C@H](C(=O)N[C@@H](CC(C)C)C(=O)N[C@@H](CC(C)C)C(=O)NCCCC[C@H](NC(=O)[C@H](CCCCNC(=O)[C@H](CC(C)C)NC(=O)[C@H](CC(C)C)NC(=O)[C@@H](NC(=O)[C@H](CCCCN)NC(=O)[C@@H](NC(=O)[C@H](CCCNC(=N)N)NC(=O)[C@H](CCCCN)NC(=O)[C@H](CC(C)C)NC(=O)[C@H](CC(C)C)NC(=O)CN)[C@@H](C)CC)[C@@H](C)O)NC(=O)[C@H](CC(C)C)NC(=O)[C@H](CC(C)C)NC(=O)[C@@H](NC(=O)[C@H](CCCCN)NC(=O)[C@@H](NC(=O)[C@H](CCCNC(=N)N)NC(=O)[C@H](CCCCN)NC(=O)[C@H](CC(C)C)NC(=O)[C@H](CC(C)C)NC(=O)CN)[C@@H](C)CC)[C@@H](C)O)C(N)=O)[C@@H](C)O
FIC index (Pseudomonas aeruginosa; checkerboard; ATCC 27853; with: polymyxin B): 0.375

COc1ccc(CCNc2cc(-c3ccccc3)nc3ncnn23)cc1
MIC (Haemophilus influenzae; broth microdilution; H128 AcrA-): 64 µM (≈ 22.1 µg/mL)

c1csc(CNC23C4CCC5C4C4C(CCC42)C53)c1
EC50 (Influenza A virus; viral replication; MDCK, H3N2 A/HK/7/87): > 100 µM

A few entries again:
Cc1cccc(-c2nc(Nc3ccncn3)c3c(C)csc3n2)n1
MIC (Haemophilus influenzae; broth microdilution; H128 AcrA-): 0.25 µM (≈ 0.0836 µg/mL)

CC[C@H](C)[C@H](NC(=O)[C@H](CCC(N)=O)NC(=O)[C@@H]1CCCN1C(=O)[C@@H](NC(=O)[C@@H](NC(=O)[C@H](Cc1ccccc1)NC(=O)[C@H](C)NC(=O)[C@H](C)NC(=O)[C@H](CC(C)C)NC(=O)[C@H](CCCNC(=N)N)NC(=O)[C@H](C)NC(=O)[C@H](CC(C)C)NC(=O)[C@H](CC(C)C)NC(=O)CNC(=O)[C@@H](NC(=O)[C@@H](N)Cc1ccccc1)C(C)C)C(C)C)[C@@H](C)CC)C(=O)N[C@H](C(=O)N[C@@H](CCCCN)C(=O)N[C@@H](CCCNC(=N)N)C(=O)N[C@@H](Cc1ccccc1)C(=O)N[C@@H](CCC(N)=O)C(=O)N[C@@H](CCCCN)C(=O)N[C@@H](CCCCN)C(=O)N[C@@H](CC(N)=O)C(N)=O)C(C)C
MIC (Aspergillus flavus; ATP luminescence; ATCC 9170; 48 h, 37 °C): > 50 µM
